Measurements collected from several papers.
Each numbered part is a random draw from the data of one study; scales do not carry over between parts.

Series 1
Target: Interferon regulatory factor 7, full length, phosphomimetic (IRF7, Homo sapiens, UniProt Q92985, residues 1-503, S101K/S471D/S472D/S475D/S476D/S477D/S483D/S484D/S487D)
Technique: protein-binding microarray
Form: double-stranded DNA, one strand shown
Matrix: in vitro
Tested at: 250 nM
Setting: 60-bp whole probe
With: salmon DNA 0.4 mg/ml
Baseline: random background probes
Reading: higher = stronger binding
All sequences stand within: GCCTAGCAC … GTCTTGATTCGCTTGACGCTGCTG
Target sequence (chain): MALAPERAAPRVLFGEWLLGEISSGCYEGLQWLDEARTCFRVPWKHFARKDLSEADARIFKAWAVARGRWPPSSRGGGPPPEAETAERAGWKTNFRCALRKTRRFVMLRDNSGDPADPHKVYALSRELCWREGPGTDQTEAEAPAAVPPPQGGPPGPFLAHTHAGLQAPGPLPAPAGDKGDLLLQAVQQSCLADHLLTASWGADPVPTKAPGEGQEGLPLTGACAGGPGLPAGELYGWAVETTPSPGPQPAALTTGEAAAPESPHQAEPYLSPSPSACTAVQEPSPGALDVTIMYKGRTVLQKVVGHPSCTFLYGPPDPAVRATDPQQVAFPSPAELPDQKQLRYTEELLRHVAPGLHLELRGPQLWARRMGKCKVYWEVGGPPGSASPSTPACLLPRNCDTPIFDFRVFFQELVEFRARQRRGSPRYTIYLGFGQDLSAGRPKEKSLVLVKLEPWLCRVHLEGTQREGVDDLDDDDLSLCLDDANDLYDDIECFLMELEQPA
| Sequence | log fluorescence |
| --- | --- |
| TTAGGTCTCTGTATCGGTTAGTGCTAG | 0.672 z-score |
| TCATAAATCTTTTTCCCACTGTGCTAG | 1.14 z-score |
| CTAGGTTTCGACTATCGGTTAGTGCTA | 6.55 z-score |
| GACGAACTGAGTATCTAGACGTGCTAG | -0.407 z-score |
| GACGTACTGCTTCTCCTGACGTGCTAG | 0.313 z-score |
| TTAGGTATCTGTCTCGGTTAGTGCTAG | 0.639 z-score |
| TTAGGACTGGGGTTTAGGTTAGTGCTA | -0.572 z-score |
| TTAGGTATCGGGTTTCGGCTAGTGCTA | 3.13 z-score |
| GACGGTTTCGTGTATCGGGACGTGCTA | 5.5 z-score |
| TTAGGTTCCGGATTCGGTTAGTGCTAG | 6.54 z-score |
| TTTTGCTTTCCTTTATGTACGTGCTAG | 2.35 z-score |
| AGATATTTAGAACTTCTCCACGTGCTA | -0.31 z-score |
| TTAGATATCAGTCTCGCTTAGTGCTAG | 0.831 z-score |
| GACGGTTTCTGACTGGGGACGTGCTAG | 1.03 z-score |
| GACGATTTCGGCTTTCGAGACGTGCTA | 0.913 z-score |
| TCAATTTACATTTTAGTACTGTGCTAG | 0.678 z-score |
| TTAGATTCCAGTTGCGATTAGTGCTAG | 4.29 z-score |
| GACGTTCTCCTTCTCCTGACGTGCTAG | 0.532 z-score |

Series 2
Target: Protein C-ets-1 (ETS1, Homo sapiens, UniProt P14921, residues 1-441, Y397A, full length assumed)
Technique: protein-binding microarray
Form: double-stranded DNA, one strand shown
Matrix: in vitro
Tested at: not given
Setting: k-mer, scored over probes, only values ≥0.25
Reading: higher = stronger binding
Construct (chain): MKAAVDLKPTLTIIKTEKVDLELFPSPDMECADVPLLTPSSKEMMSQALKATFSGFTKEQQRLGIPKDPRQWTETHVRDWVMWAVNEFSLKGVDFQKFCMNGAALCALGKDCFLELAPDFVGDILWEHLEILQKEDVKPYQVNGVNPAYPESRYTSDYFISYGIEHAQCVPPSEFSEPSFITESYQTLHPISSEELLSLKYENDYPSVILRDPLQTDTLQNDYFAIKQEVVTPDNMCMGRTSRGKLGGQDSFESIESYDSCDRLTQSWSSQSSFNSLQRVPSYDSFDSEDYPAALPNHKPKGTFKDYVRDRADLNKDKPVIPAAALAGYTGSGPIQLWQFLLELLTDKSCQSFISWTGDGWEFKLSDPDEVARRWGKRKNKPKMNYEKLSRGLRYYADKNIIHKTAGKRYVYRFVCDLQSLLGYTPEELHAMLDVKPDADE
| Sequence | E-score |
| --- | --- |
| GGATGACA | 0.252 |
| CCTTGTCA | 0.272 |
| CAAATACA | 0.299 |
| ACGTATAC | 0.297 |
| GTTACAAC | 0.297 |
| ACGGCAAA | 0.343 |
| GGGCGGAA | 0.279 |
| GGAAGTCA | 0.272 |
| TCGAACAA | 0.302 |
| TAATGTAA | 0.257 |
| CTGTCACA | 0.284 |
| GCACTTCC | 0.33 |
| TGACGGCA | 0.263 |
| CATTTGTA | 0.285 |
| ATTTCCGA | 0.324 |
| CAACAACA | 0.315 |
| CCGCACCC | 0.253 |
| ATTTGACA | 0.293 |
| CCGGCAAA | 0.297 |
| GTGCCGGA | 0.29 |
| ACAAATCG | 0.293 |
| AGGATGTA | 0.271 |
| ACCGGCAC | 0.27 |
| AGTGTACA | 0.312 |
| AAATACAA | 0.27 |

Series 3
Target: Prothrombin, mature alpha-thrombin (F2, Homo sapiens, UniProt P00734)
Technique: aptamer microarray, sandwich
Form: DNA with 2'F-ANA
Matrix: in vitro
Tested at: 200 nM
Setting: whole 15-mer aptamer, many near background
With: Cy3 exosite-II aptamer, 400 nM
Reading: higher = stronger binding
Sequence: GGTTGGTGTGGTTGG
| Modification | mean fluorescence intensity [a.u.] |
| --- | --- |
| 2'F-ANA at 3 4 5 6 7 10 12 15 | 57.1 |
| 2'F-ANA at 4 7 8 9 10 11 15 | 82.2 |
| 2'F-ANA at 1 3 4 6 11 12 15 | 266 |
| 2'F-ANA at 1 3 5 7 8 11 12 | 111 |
| 2'F-ANA at 3 4 5 6 7 8 10 11 12 | 57.2 |
| 2'F-ANA at 5 8 9 10 11 12 13 14 | 47.1 |
| 2'F-ANA at 1 2 3 5 7 8 9 12 | 183 |
| 2'F-ANA at 2 5 8 9 10 11 14 15 | 59.2 |
| 2'F-ANA at 1 2 3 5 6 9 11 13 | 50.7 |
| 2'F-ANA at 1 3 4 6 8 9 10 12 13 15 | 68.3 |
| 2'F-ANA at 1 3 4 7 8 9 10 11 12 13 15 | 71.3 |
| 2'F-ANA at 4 5 6 7 10 13 14 15 | 49.7 |
| 2'F-ANA at 1 2 4 10 12 13 | 55.7 |
| 2'F-ANA at 2 5 6 7 8 9 11 13 14 | 45.9 |
| 2'F-ANA at 1 6 8 10 11 12 13 | 63.5 |
| 2'F-ANA at 1 7 8 9 11 13 14 15 | 66.3 |
| 2'F-ANA at 1 2 4 6 7 8 9 10 12 13 15 | 57.2 |
| 2'F-ANA at 1 2 3 7 8 10 11 12 13 | 87.3 |
| 2'F-ANA at 1 3 5 7 12 15 | 134 |
| 2'F-ANA at 1 3 4 6 8 9 11 | 230 |
| 2'F-ANA at 2 4 8 10 | 99 |
| 2'F-ANA at 4 7 8 9 12 13 14 15 | 101 |

Series 4
Target: RNA binding protein fox-1 homolog 2, RRM domain, GST-SBP tag (RBFOX2, Homo sapiens, UniProt O43251-10, residues 100-194)
Technique: RNA Bind-n-Seq
Form: RNA
Matrix: in vitro
Tested at: 365 nM
Setting: natural RNA segment, single round, ends assumed
Baseline: no-protein control
Reading: higher = stronger binding
All sequences stand within: GGGAGUUCUACAGUCCGACGAUC … UGGAAUUCUCGGGUGCCAA
Target sequence (chain): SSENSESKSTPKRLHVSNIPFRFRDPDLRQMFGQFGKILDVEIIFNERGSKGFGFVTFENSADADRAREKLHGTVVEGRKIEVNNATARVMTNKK
| Sequence | RBNS enrichment (R) |
| --- | --- |
| GGGAGAAGCUUCUCUGAGGGGCUCGCUCUGCUUUUCCUUCACGGUUUUAUUUUUGAUUGUUUUUUCUUGUUGCCCAUCUGUGCUAAGCCUUAACUGUGGCAAAAAUAAUG | 0.416 |
| GGAUCCCUGUAGCCAAAACAGUAUAUGAUCCAGCUGCAGAGAGCAGACUGCUCUCAGCUUGCACAGCACCUUAGGCGAGGGAAGAAUAUACGGAUAGGGAAUGGGGUGGA | 1.13 |
| GAACUGGGUCAAGGCACCCUUGAAGACAGAGGCCAGCUCUGCACAGCAGCAGCGCCCCCUGCUCUCCUGUGCCUCAGCCCUUCUUAUGUUCCCUGAUGUCACACCCCACU | 0.178 |
| UGCAGCUUACAUCAAACGAACAUGUAGUGCAUGCCCACUGCCUGAUGGCCAGAUGGCCUGUAGGAAGAGCUACCAGGGCUUCCAGACCUGUGGAACGAAGAGGAUGGGGA | 4.7 |
| CUUCCUUGCGCAUUGUCAGCAUUUCUGAGUGAUUCACAGUGAUGUUUUAUGAUGGUUAGACUUCUGGACAUGGACUCAUCUUGUGAGAAGAUUUGAAUAAUGACCAAUUC | 0.572 |
| GAGACGCACCAUCCGCAGGCAGCGUCUCAGUGAAGCCUGUCCCCUGGGCUUGUCCACGGCAGGAGGCCCCUGGCCUGUUUAAGCCAUACCGAUGCUUAAUUUACAUUUUU | 0.301 |
| GCCCCCAUUCAGGGGCCGACUAACACCCUUUAUCCAAUGGUGCUAACCCCGGCUCUCCCUUUUCCACCCUACCCACCUAAAGAAGCACAGGCCCCACGAAGCAGGGGCCA | 0.315 |
| UAGUGAUGCUGGCUCUGCAGUUCCCUCUUGCCCAUCCCCGAGUGGGGACAAUUUCCCCAUCCCCAAGUGGGGACAAUUUACUUCCUUCUUUGCUGGUUUACUCUAGGACU | 0.362 |

Some of these lines once more (series 3):
| Modification | mean fluorescence intensity [a.u.] |
| --- | --- |
| 2'F-ANA at 4 5 6 7 10 13 14 15 | 49.7 |
| 2'F-ANA at 1 2 4 10 12 13 | 55.7 |
| 2'F-ANA at 2 5 6 7 8 9 11 13 14 | 45.9 |
| 2'F-ANA at 1 6 8 10 11 12 13 | 63.5 |
